Measured values pooled from the literature.
Parts stem from different laboratories: compare values within a part only. “And” joins repeats or separate records; there may be more than shown.

Set 1
Compound: C=CCc1ccc(O)c(-c2cc(CC=C)ccc2O)c1
Observed: chloride current
ANO1 del476-501/F807A: Anoctamin-1 (ANO1, Homo sapiens, UniProt Q5XXA6, del476-501/F807A)
Chain of UniProt Q5XXA6 (whole entry, unmodified, looked up): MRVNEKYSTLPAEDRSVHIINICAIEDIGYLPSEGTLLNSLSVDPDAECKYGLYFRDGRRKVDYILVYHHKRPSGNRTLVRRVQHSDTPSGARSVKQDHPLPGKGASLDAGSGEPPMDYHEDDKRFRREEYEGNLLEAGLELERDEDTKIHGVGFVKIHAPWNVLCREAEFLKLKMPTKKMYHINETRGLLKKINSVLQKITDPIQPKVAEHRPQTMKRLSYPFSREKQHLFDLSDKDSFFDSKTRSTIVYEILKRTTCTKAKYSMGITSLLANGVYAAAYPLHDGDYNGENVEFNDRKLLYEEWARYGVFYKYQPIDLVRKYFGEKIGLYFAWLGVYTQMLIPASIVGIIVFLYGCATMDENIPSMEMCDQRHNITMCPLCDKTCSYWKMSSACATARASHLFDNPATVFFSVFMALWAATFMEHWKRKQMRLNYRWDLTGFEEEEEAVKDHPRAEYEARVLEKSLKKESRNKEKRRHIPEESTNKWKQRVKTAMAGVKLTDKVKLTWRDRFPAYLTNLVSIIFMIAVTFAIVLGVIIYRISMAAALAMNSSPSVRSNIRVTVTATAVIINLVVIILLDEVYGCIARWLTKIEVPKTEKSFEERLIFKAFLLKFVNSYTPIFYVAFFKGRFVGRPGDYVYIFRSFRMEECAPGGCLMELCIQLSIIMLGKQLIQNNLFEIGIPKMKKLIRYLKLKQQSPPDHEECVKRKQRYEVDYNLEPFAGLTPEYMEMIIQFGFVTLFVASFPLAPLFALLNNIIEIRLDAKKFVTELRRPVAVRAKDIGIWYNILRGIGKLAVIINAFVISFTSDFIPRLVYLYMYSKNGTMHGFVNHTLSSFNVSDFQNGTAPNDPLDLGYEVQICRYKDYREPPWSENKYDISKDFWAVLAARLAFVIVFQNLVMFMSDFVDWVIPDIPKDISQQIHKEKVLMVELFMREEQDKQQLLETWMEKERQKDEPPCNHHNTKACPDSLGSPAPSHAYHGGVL
ANO1 del476-501/L548A: Anoctamin-1 (ANO1, Homo sapiens, UniProt Q5XXA6, del476-501/L548A)
ANO1 del476-501/F623A: Anoctamin-1 (ANO1, Homo sapiens, UniProt Q5XXA6, del476-501/F623A)
For ANO1 del476-501/F807A; whole-cell voltage clamp; membrane voltage -40 mV: IC50 read 19.1 µM.
For ANO1 del476-501/L548A; whole-cell voltage clamp; membrane voltage 100 mV: IC50 read 36.6 µM.
For Anoctamin-1 (ANO1, Homo sapiens, UniProt Q5XXA6, del476-501/M544A); whole-cell voltage clamp; membrane voltage 80 mV: IC50 read 92.2 µM.
The IC50 was 24.3 µM (ANO1 del476-501/F623A; whole-cell voltage clamp; membrane voltage 20 mV).
For Anoctamin-1 (ANO1, Homo sapiens, UniProt Q5XXA6, del476-501/R561A); inhibitor, whole-cell patch clamp; 300 nM Ca2+, 100 mV: IC50 read 29.6 µM.
The IC50 was 29.2 µM (Anoctamin-1 (ANO1, Homo sapiens, UniProt Q5XXA6, del476-501/F646A); inhibitor, whole-cell voltage clamp; pore pocket mutant F620A at 100 mV, with: 300 nM Ca2+).
For ANO1 del476-501/F807A; whole-cell voltage clamp; membrane voltage -100 mV: IC50 read 30.5 µM.
The IC50 was 29.4 µM (Anoctamin-1 (ANO1, Homo sapiens, UniProt Q5XXA6, del476-501/R541K); inhibitor, whole-cell voltage clamp; mutant R515K).
The IC50 was 71.8 µM (Anoctamin-1 (ANO1, Homo sapiens, UniProt Q5XXA6, del476-501/R541I); inhibitor, whole-cell voltage clamp; R515I mutant at 60 mV).
Anoctamin-1 (ANO1, Homo sapiens, UniProt Q5XXA6, del476-501/E650A); whole-cell voltage clamp; membrane voltage -40 mV — IC50: 18.7 µM.
The IC50 was 31.6 µM (ANO1 del476-501/L548A; whole-cell voltage clamp; membrane voltage 40 mV).
ANO1 del476-501/L548A; whole-cell voltage clamp; membrane voltage 60 mV — IC50: 32.3 µM.
For ANO1 del476-501/F623A; whole-cell voltage clamp; membrane voltage 80 mV: IC50 read 24.6 µM.
It gave 176 µM for IC50 (Anoctamin-1 (ANO1, Homo sapiens, UniProt Q5XXA6, del476-501/M544I); inhibitor, whole-cell voltage clamp; mutant M518I).

Set 2
SMILES: CC(C)(C(=O)O)[C@H](NC(=O)Cc1cccc(I)c1)c1ccc2oc(=O)[nH]c2c1
Method: Incucyte 3D growth
Tested at: 30 µM
Direction: higher = more growth
For MEL-JUSO; 234.52 h: spheroid area read 1.54e+07 a.u. and 2.02e+07 a.u. and 2.9e+07 a.u. and 1.69e+07 a.u. and 1.83e+07 a.u. and 1.71e+07 a.u.
A375; 60.52 h — spheroid area: 3.63e+07 a.u. and 3.48e+07 a.u. and 4.3e+07 a.u. and 3.08e+07 a.u. and 3.51e+07 a.u. and 2.22e+07 a.u.
MEL-JUSO; 378.52 h — spheroid area: 3.94e+07 a.u. and 4.18e+07 a.u. and 3.88e+07 a.u. and 5.84e+07 a.u. and 4.93e+07 a.u. and 3.45e+07 a.u.
For NCI-H1437; 72 h: spheroid area read 2.35e+07 a.u. and 2.91e+07 a.u. and 2.79e+07 a.u. and 3.03e+07 a.u. and 2.47e+07 a.u.
For PC-9; 222 h: spheroid area read 1.85e+09 a.u. and 1.79e+09 a.u. and 1.77e+09 a.u. and 1.83e+09 a.u.
It gave 1.2e+07 a.u. and 1.22e+07 a.u. and 1.05e+07 a.u. and 1.19e+07 a.u. and 1.33e+07 a.u. for spheroid area (NCI-H358; 276 h).
The spheroid area was 1.6e+08 a.u. and 1.83e+08 a.u. and 1.51e+08 a.u. and 1.71e+08 a.u. and 1.65e+08 a.u. and 1.8e+08 a.u. (A375; 414.52 h).
The spheroid area was 1.49e+07 a.u. and 1.4e+07 a.u. and 1.65e+07 a.u. and 1.46e+07 a.u. and 1.64e+07 a.u. and 1.86e+07 a.u. (KP-4; 72 h).
It gave 4.07e+08 a.u. and 3.91e+08 a.u. and 4.28e+08 a.u. and 4.09e+08 a.u. and 4.01e+08 a.u. and 4.04e+08 a.u. for spheroid area (PC-9; 48 h).
A375; 180.52 h — spheroid area: 1.21e+08 a.u. and 1.45e+08 a.u. and 1.16e+08 a.u. and 1.41e+08 a.u. and 1.34e+08 a.u. and 1.33e+08 a.u.
It gave 1.72e+07 a.u. and 1.64e+07 a.u. and 1.67e+07 a.u. and 1.46e+07 a.u. and 1.55e+07 a.u. and 1.81e+07 a.u. for spheroid area (IPC-298; 6 h).
For KP-4; 264 h: spheroid area read 8.64e+07 a.u. and 2.57e+07 a.u. and 9.72e+07 a.u. and 4.48e+07 a.u. and 6.23e+07 a.u. and 5.97e+07 a.u.
PC-9; 24 h — spheroid area: 2.9e+08 a.u. and 2.98e+08 a.u. and 2.97e+08 a.u. and 3.23e+08 a.u. and 3.05e+08 a.u. and 3.01e+08 a.u.
It gave 1.05e+08 a.u. and 8.66e+07 a.u. and 8.22e+07 a.u. and 7.67e+07 a.u. and 9.31e+07 a.u. and 8.54e+07 a.u. for spheroid area (A375; 144 h).
It gave 3e+07 a.u. and 2.66e+07 a.u. and 1.69e+07 a.u. and 1.82e+07 a.u. and 2.12e+07 a.u. for spheroid area (NCI-H1437; 48 h).

Set 3
Cell line: mouse MPNST tumor cells
Method: high-content immunofluorescence imaging
Item: nuclear SOX9
Tested at: 10 µM
Time: 12 h
Setting: mean of 2 replicates
Reference: DMSO control
Direction: higher = more nuclear SOX9
For `O=C(COc1cccc2c(=O)[nH]ccc12)c1ccccc1`, “nuclear SOX9 intensity” read 116 % of DMSO.
`NCCc1c[nH]cn1`: “nuclear SOX9 intensity” 93.9 % of DMSO and 107 % of DMSO.
`Cc1cc(C)cc(NC(=O)Nc2ccc(OS(N)(=O)=O)cc2)c1`: “nuclear SOX9 intensity” 94.9 % of DMSO.
Under “nuclear SOX9 intensity”, `Cc1c(NC(=O)N2CCOCC2)ccc2c1c1ccccc1n2C(C)C` is recorded as 98.5 % of DMSO.
`CC[C@H]1Cn2nc(-c3ccc(Cl)cc3Cl)c3nc(C)cc(c32)N1CC1CC1` — result for “nuclear SOX9 intensity”: 134 % of DMSO.
`CC(C)(C)c1ccc(NC(=O)N2CCN(c3ncccc3Cl)CC2)cc1`: “nuclear SOX9 intensity” 191 % of DMSO.
`NC(=O)c1cn(Cc2c(F)cccc2F)nn1`: “nuclear SOX9 intensity” 86.9 % of DMSO.
`CCOC(=O)Nc1ccc2c(c1)N(C(=O)CCN1CCOCC1)c1ccccc1S2`: “nuclear SOX9 intensity” 86.2 % of DMSO.
`CN(C)CC(c1ccc(O)cc1)C1(O)CCCCC1` (centres unmarked) — result for “nuclear SOX9 intensity”: 91 % of DMSO.
Under “nuclear SOX9 intensity”, `Cc1noc(NS(=O)(=O)c2cccc3c(N(C)C)cccc23)c1C` is recorded as 101 % of DMSO.
For `COc1ccc(N2CCN(C(=O)c3cc4c(s3)-c3ccccc3S(=O)(=O)C4)CC2)cc1`, “nuclear SOX9 intensity” read 108 % of DMSO.
`CC(C)C[C@H](NC(=O)N1CCCCCC1)C(=O)N[C@H](Cc1cn(C)c2ccccc12)C(=O)N[C@H](Cc1ccccn1)C(=O)O`: “nuclear SOX9 intensity” 91.1 % of DMSO.
`CN[C@@H]1[C@H](O[C@H]2[C@H](O[C@H]3[C@H](O)[C@@H](O)[C@H](NC(=N)N)[C@@H](O)[C@@H]3NC(=N)N)O[C@@H](C)[C@]2(O)CO)O[C@@H](CO)[C@H](O)[C@H]1O`: “nuclear SOX9 intensity” 101 % of DMSO.
Under “nuclear SOX9 intensity”, `CC1CS(=O)(=O)CCN1/N=C/c1ccc([N+](=O)[O-])o1` (centres unmarked) is recorded as 98.9 % of DMSO.
Under “nuclear SOX9 intensity”, `O=C(O)c1ccccc1Nc1cccc(C(F)(F)F)c1` is recorded as 108 % of DMSO.

Set 4
Target: Serine/threonine-protein kinase pim-2 (PIM2, Homo sapiens, UniProt Q9P1W9)
Chain of UniProt Q9P1W9 (whole entry, looked up): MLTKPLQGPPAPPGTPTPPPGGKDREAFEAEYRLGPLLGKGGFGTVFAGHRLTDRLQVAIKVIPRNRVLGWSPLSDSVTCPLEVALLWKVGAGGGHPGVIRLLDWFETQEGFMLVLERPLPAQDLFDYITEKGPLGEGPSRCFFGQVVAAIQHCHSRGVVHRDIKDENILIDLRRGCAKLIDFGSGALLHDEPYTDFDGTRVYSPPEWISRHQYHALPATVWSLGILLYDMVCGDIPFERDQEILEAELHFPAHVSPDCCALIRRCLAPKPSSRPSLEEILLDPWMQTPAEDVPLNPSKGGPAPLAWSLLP
Observed: enzyme activity
Action: inhibitor
Tested at: 0.5 µM
Reference: control
For `Oc1ccc(Nc2nc(-c3ccc(Cl)cc3)cs2)cc1`, the remaining activity was 106%.
The remaining activity of `NC(=O)c1ccc(N(C(N)=O)c2c(F)cccc2F)nc1-c1ccc(F)cc1F` is reported as 98.3%.
`Fc1ccc(-c2nc3n(c2-c2ccncc2)CCS3)cc1` gave a remaining activity of 121%.
With `Cc1cc(Nc2nc(-c3ccccc3)nc3ccccc23)n[nH]1` the remaining activity was 92.7%.
With `Cc1ccc(NC2=CC(=O)c3sc(C)nc3C2=O)cc1` the remaining activity was 103%.
The remaining activity of `CSc1nc(-c2ccnc(N[C@@H](C)c3ccccc3)c2)c(-c2ccc(F)cc2)[nH]1` (racemic) is reported as 87.9%.
For `Nc1nccc(-c2c(-c3ccc(F)cc3)ncn2C2CCNCC2)n1`, the remaining activity was 100%.
`COc1ccc(S(=O)(=O)N(CCO)c2ccccc2CN(C)CC=Cc2ccc(Cl)cc2)cc1` gave a remaining activity of 99.7%.
The remaining activity of `CC(=O)c1ccc(N2CCOCC2)cc1O` is reported as 117%.
The remaining activity of `Cc1cncc2cccc(S(=O)(=O)N3CCCN(C(=O)CN)C[C@@H]3C)c12` is reported as 104%.
For `CCc1[nH]c(-c2ccc(OC)cc2)nc1-c1ccncc1`, the remaining activity was 105%.
With `O=C1NC(=O)C(c2c[nH]c3ccccc23)=C1c1c[nH]c2ccccc12` the remaining activity was 105%.
For `CC(C)(C)n1nc(Cc2cccc3ccccc23)c2c(N)ncnc21`, the remaining activity was 94.1%.
`O=S(=O)(NCCNC/C=C/c1ccc(Br)cc1)c1cccc2cnccc12` has a remaining activity of 104%.
For `Nc1ncnc2c1cnn2-c1ccccc1`, the remaining activity was 98.2%.
`CC#CC(=O)Nc1cc2c(Nc3ccc(F)c(Cl)c3)ncnc2cn1` has a remaining activity of 111%.
With `CC[n+]1c(/C=C/N(C)c2ccccc2)n(-c2ccccc2)c2ccc(-c3nc4ccccc4s3)cc21` the remaining activity was 117%.
`CCCC(=O)Oc1ccc2[nH]c(C(=O)c3cc4ccccc4[nH]3)cc2c1` gave a remaining activity of 101%.
For `N#CC(=C(N)Sc1ccc(N)cc1)c1ccccc1C(F)(F)F`, the remaining activity was 103%.
`Nc1nc(Nc2ccc(S(N)(=O)=O)cc2)nn1C(=O)c1c(F)cccc1F` gave a remaining activity of 113%.
The remaining activity of `O=C1Cc2c([nH]c3ccc([N+](=O)[O-])cc23)-c2ccccc2N1` is reported as 113%.

Repeated from above (set 3):
`CCOC(=O)Nc1ccc2c(c1)N(C(=O)CCN1CCOCC1)c1ccccc1S2`: “nuclear SOX9 intensity” 86.2 % of DMSO.
Under “nuclear SOX9 intensity”, `Cc1c(NC(=O)N2CCOCC2)ccc2c1c1ccccc1n2C(C)C` is recorded as 98.5 % of DMSO.
For `O=C(COc1cccc2c(=O)[nH]ccc12)c1ccccc1`, “nuclear SOX9 intensity” read 116 % of DMSO.
Under “nuclear SOX9 intensity”, `Cc1noc(NS(=O)(=O)c2cccc3c(N(C)C)cccc23)c1C` is recorded as 101 % of DMSO.
`CC(C)(C)c1ccc(NC(=O)N2CCN(c3ncccc3Cl)CC2)cc1`: “nuclear SOX9 intensity” 191 % of DMSO.
`NCCc1c[nH]cn1`: “nuclear SOX9 intensity” 93.9 % of DMSO and 107 % of DMSO.
